Assay results from different studies.
Every numbered part comes from another study and shows a few of its results, in no order. Positions count from the first letter of the parent shown.

Study 1 — method: universal PBM; form: double-stranded DNA, one strand shown; medium: in vitro; concentration: not given; reading: higher = stronger binding; quantity: E-score
Target: Sal-like protein 4, full length isoform B (SALL4, Homo sapiens, UniProt Q9UJQ4-2, residues 1-616)
Setting: 8-mer, flanks averaged, mean of replicates
Residues (chain): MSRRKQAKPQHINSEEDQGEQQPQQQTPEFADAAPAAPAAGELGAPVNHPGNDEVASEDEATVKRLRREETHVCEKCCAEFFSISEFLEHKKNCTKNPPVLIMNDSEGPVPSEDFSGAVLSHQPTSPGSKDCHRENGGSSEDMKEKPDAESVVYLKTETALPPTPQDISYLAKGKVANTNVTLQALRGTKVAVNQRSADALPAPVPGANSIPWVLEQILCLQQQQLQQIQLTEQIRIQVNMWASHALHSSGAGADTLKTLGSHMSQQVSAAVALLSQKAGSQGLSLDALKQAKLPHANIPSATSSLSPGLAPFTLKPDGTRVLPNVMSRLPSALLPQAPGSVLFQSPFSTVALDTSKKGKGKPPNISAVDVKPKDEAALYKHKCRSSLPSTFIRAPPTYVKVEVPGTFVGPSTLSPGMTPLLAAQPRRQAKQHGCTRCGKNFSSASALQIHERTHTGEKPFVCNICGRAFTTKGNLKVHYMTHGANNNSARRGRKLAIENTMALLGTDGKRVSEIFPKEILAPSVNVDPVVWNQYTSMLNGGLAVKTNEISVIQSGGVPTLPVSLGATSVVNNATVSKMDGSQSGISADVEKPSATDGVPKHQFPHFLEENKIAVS
AGGCTTAA: 0.105
CAAACCCG: -0.13
CTCGCAAG: -0.125
AGCCGAAA: -0.0161
CCCAGAGC: -0.247
AATAGCTC: 0.027
CTGACACC: -0.116
AGTGACAA: 0.102
AGCTACAC: 0.111
GGAGTACA: -0.0515
ACTCTAAA: 0.149
ACAACTTC: 0.0725
TGTTGCAA: 0.119

Study 2 — method: DHFR PCA, deep sequencing; medium: yeast; with: (+)-ABA 17 µM; relative to: wild-type fitted maximum; reading: higher = stronger binding; quantity: relative binding score
Target: ABI1, truncated, D143A, DHFR fusion (Arabidopsis thaliana)
Setting: methotrexate growth selection, single substitutions
Parent: PYL1, truncated, DHFR fusion (Arabidopsis thaliana); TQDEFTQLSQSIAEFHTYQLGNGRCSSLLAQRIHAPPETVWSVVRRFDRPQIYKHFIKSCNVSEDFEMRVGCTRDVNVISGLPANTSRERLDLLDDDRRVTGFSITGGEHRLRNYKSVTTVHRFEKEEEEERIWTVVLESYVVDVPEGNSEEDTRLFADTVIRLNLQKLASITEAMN
D96E: 92.3%
G81I: -2.49%
L91R: -13.5%
E139I: 70.6%
F56Q: 15.2%

Study 3 — target: CCNA1, cyclin fold, Cln2 fusion (human); method: yeast growth competition, sequencing; medium: yeast; setting: strong parent motif; relative to: not given; reading: higher = stronger binding; quantity: normalised enrichment score
Parent: CCP110 docking peptide (human); EKVKRRLDLDIDG; partner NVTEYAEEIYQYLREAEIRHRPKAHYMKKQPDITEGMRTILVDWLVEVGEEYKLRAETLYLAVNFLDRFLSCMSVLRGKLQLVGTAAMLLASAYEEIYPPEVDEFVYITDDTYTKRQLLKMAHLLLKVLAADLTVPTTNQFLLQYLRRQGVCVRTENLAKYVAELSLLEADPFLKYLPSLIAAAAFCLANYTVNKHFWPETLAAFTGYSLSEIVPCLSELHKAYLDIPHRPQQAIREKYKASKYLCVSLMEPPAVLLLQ
EKVKRRLDLAIDG [D10A]: 0.76
EKVKRRLDLDADG [I11A]: 0.43
EKVKRRLALDIDG [D8A]: 0.315
EKVKRRLDFDIDG [L9F]: 1.83
EAVKRRLDLDIDG [K2A]: 0.477
EKAKRRLDLDIDG [V3A]: 0.0973
AKVKRRLDLDIDG [E1A]: 0.751

Single results of other studies
PhoQ, residues 284 288 289 292 302 303 ASTSDA
fold induction (PhoP, residues 12 14 15 18 19 LHTVM (Escherichia coli, UniProt P23836); Sort-seq, item: YFP reporter; E. coli; PhoQ-PhoP variant library, with: 10 µM Mg2+; relative to: high Mg2+ state, higher = stronger signaling): 14.2
